Results gathered from unrelated publications.
Numbered parts are unrelated; each lists some results of a single study.
Chain of UniProt P00519 (whole entry, looked up): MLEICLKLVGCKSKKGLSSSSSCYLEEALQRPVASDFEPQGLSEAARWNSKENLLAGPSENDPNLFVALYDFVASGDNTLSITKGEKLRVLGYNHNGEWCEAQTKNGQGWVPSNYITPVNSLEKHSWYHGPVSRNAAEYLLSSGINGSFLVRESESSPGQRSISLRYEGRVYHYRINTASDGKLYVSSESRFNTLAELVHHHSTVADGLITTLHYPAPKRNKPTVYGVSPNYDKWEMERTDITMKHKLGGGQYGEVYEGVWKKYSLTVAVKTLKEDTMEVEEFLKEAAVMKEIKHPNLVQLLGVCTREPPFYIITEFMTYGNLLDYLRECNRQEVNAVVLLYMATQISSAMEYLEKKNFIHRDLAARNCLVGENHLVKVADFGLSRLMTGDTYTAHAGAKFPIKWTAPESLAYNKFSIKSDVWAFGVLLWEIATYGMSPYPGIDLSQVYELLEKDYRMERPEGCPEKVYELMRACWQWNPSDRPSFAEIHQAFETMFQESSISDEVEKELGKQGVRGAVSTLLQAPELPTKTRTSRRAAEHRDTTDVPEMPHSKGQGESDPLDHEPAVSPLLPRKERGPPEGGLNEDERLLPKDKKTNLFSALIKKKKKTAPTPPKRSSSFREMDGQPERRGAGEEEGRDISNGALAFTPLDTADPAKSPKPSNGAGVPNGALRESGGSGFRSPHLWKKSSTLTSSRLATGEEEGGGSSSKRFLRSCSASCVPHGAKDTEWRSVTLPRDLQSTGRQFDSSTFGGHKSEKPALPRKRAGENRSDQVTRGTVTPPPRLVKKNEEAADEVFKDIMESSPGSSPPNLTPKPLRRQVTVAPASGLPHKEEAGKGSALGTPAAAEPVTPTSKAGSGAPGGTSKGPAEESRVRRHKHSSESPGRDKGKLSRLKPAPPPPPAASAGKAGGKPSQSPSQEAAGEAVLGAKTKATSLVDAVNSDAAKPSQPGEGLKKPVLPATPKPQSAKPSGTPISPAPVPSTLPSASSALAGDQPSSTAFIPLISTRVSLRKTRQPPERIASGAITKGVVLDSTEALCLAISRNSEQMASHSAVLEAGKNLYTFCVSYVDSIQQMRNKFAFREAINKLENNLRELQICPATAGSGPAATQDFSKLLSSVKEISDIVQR
Chain of UniProt P07948 (whole entry, looked up): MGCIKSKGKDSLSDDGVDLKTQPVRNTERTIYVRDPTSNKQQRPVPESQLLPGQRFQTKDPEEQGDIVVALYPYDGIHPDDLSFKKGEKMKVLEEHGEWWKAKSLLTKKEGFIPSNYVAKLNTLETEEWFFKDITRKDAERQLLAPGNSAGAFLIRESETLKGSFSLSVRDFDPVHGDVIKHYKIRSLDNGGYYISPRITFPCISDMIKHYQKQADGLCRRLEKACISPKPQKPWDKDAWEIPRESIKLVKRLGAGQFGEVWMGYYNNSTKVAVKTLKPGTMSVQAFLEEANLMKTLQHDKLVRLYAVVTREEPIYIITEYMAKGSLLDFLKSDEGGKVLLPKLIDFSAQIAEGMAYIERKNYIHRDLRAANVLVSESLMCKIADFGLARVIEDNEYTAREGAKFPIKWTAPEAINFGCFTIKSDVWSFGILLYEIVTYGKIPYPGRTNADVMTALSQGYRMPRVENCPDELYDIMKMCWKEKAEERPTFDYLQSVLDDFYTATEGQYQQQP
Chain of UniProt P11802 (whole entry, looked up): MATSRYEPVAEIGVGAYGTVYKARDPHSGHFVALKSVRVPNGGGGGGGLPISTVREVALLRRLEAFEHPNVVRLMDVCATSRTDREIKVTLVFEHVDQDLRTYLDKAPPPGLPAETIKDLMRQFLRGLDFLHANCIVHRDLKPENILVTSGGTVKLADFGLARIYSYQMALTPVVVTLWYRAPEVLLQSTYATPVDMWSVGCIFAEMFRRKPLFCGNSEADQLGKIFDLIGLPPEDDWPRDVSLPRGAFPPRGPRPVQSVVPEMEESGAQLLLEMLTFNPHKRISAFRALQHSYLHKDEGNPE
Chain of UniProt Q13470 (whole entry, looked up): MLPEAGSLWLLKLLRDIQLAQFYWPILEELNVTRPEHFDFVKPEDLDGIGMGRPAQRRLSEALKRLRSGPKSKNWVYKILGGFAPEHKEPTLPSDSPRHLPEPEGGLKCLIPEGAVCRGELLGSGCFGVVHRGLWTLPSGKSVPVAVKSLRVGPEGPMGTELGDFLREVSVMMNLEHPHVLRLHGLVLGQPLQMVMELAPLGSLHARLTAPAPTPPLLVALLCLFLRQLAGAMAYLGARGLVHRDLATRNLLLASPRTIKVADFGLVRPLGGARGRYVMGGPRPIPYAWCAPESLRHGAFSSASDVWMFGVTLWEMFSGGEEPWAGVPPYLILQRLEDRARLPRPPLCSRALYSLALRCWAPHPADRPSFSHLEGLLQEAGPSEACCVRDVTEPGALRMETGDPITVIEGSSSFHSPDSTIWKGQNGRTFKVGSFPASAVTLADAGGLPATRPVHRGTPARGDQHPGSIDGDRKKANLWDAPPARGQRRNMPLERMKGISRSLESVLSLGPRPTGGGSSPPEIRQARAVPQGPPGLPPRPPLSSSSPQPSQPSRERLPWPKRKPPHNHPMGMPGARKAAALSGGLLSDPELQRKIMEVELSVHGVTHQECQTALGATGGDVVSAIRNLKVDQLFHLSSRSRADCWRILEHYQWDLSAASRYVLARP
Chain of UniProt P45984 (whole entry, looked up): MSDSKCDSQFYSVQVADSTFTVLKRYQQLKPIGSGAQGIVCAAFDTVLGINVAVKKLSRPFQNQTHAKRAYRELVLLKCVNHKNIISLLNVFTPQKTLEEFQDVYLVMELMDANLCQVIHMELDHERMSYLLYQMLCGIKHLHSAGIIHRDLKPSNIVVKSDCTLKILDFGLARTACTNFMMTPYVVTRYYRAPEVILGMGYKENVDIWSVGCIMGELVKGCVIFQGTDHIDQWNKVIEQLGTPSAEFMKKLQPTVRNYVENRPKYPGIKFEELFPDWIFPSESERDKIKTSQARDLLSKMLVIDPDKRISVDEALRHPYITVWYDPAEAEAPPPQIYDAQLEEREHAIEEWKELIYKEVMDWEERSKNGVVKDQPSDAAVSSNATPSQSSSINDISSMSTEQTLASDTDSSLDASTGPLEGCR
Chain of UniProt Q8TDX7 (whole entry, looked up): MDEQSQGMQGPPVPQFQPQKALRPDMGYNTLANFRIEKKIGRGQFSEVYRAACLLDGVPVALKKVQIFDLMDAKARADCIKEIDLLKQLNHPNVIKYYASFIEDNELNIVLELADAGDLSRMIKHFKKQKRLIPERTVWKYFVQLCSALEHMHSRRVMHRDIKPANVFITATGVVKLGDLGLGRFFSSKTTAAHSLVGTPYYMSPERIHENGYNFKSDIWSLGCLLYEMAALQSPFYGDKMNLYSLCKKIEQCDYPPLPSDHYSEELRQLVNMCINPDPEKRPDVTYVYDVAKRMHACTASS

Study 1
Target: NUAK family SNF1-like kinase 2 (NUAK2, Homo sapiens, UniProt Q9H093)
Effect on: enzyme activity
Action: inhibitor
Concentration: 0.5 µM
Baseline: control
Residues (Q9H093 1-628): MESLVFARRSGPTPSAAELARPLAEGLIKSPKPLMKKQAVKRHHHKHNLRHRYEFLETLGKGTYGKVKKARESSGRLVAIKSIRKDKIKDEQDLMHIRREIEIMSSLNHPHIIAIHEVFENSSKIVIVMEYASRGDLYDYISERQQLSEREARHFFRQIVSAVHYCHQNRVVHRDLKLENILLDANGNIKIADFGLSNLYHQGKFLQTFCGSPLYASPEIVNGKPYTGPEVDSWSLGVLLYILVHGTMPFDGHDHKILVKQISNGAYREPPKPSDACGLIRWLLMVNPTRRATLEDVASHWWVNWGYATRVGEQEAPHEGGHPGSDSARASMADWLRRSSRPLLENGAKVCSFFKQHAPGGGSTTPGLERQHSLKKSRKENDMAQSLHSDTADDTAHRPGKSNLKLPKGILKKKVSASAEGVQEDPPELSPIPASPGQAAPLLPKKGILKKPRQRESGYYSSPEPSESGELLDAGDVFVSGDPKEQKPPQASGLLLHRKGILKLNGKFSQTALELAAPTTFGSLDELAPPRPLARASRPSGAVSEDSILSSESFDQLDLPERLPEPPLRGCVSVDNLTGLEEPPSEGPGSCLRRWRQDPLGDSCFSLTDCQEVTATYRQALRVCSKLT
| Structure (SMILES) | remaining activity [%] |
| --- | --- |
| N#C/C(=C(/N)SC1C=CC=CC1)c1cccc(C(O)c2ccncc2)c1 (centres unmarked) | 79.2 |
| CNc1cc2c(Nc3cccc(Br)c3)ncnc2cn1 | 85 |
| N#CC(c1ccnc(NCCc2cccnc2)n1)c1nc2ccccc2s1 (centres unmarked) | 72.5 |
| O=c1c(-c2ccc(F)cc2)c(-c2ccncc2)[nH]n1-c1ccc(Cl)cc1 | 88.7 |
| CCN(CC)CCCCN1c2ccccc2Oc2ccc(Cl)cc21 | 90.9 |
| O=C1c2ccccc2-c2nc3nnnn3nc21 | 92.5 |
| NC(=O)c1ccc(-c2nc(-c3ccc4c(c3)OCCO4)c(-c3ccccn3)[nH]2)cc1 | 102 |
| CCCCc1c(-c2ccc(O)cc2)[nH]c2nccnc12 | 64.8 |
| NC(=O)c1cccc(-c2cc(Nc3ccc(OC(F)(F)F)cc3)ncn2)c1 | 87.8 |
| Nc1nc(Nc2ccc(S(N)(=O)=O)cc2)nn1C(=S)Nc1c(F)cccc1F | 9.73 |
| CC(C)n1cnc2c(Nc3cccc(Cl)c3)nc(NCCO)nc21 | 89.8 |
| C[C@@H](N)[C@H]1CC[C@H](C(=O)Nc2ccncc2)CC1 | 122 |
| FC(F)(F)c1ccc(/C=C/c2nc(COc3ccc(CCCCn4ccnn4)cc3)co2)cc1 | 101 |
| COc1cc2c(N3CCN(C(=O)Nc4ccc(OC(C)C)cc4)CC3)ncnc2cc1OCCCN1CCCCC1 | 100 |
| O=C(c1ccccc1)c1ccc(N2CCOCC2)cc1O | 111 |
| c1cc(-c2cnn3cc(-c4ccc(OCCN5CCCCC5)cc4)cnc23)ccn1 | 82 |
| O=C1NC(=O)/C(=C/c2ccc3c(c2)OC(F)(F)O3)S1 | 74.8 |
| COc1cc2c(Nc3ccc(Br)cc3F)ncnc2cc1OCC1CCN(C)CC1 | 100 |
| CC(C)(C)c1nc2c3cc[nH]c(=O)c3c3cc(F)ccc3c2[nH]1 | 66 |
| O=C(O)/C=C/c1cc(Br)c(Br)c(Br)c1Br | 98.9 |
| O=Nc1c(-c2c(O)[nH]c3ccccc23)[nH]c2ccccc12 | 72.5 |
| CC(C)N(CCC(=O)c1ccc2ccccc2c1)Cc1ccccc1 | 85.4 |

Study 2
Cell line: mouse MPNST tumor cells
Technique: high-content nuclear imaging
Item: cell number
Concentration: 10 µM
Time: 12 h
Setting: mean of 2 replicates
Baseline: plate mean
Direction: higher = more cells
| Compound | nuclei count [z-score] |
| --- | --- |
| CN(C)CCN(Cc1ccc(Cl)cc1)c1ccccn1 | 0.404 |
| Cc1ccc2c(c1CCC(=O)O)CC[C@@H](NS(=O)(=O)c1ccc(Cl)cc1)C2 | -1.36 |
| CN(C)Cc1cccc(N=C(c2ccccc2)c2c(O)[nH]c3cc(C(=O)N(C)C)ccc23)c1 | 0.26 |
| N=C(N)NCCCC[C@@H]1NC(=O)CCSSC[C@@H](C(N)=O)NC(=O)[C@@H]2CCCN2C(=O)[C@H](Cc2c[nH]c3ccccc23)NC(=O)[C@H](CC(=O)O)NC(=O)CNC1=O | 0.371 |
| CCC(=O)NC[C@H](Cc1ccc(OCCc2nc(-c3ccccc3)oc2C)cc1)N/C(C)=C\C(=O)c1ccc(C(F)(F)F)cc1 | -0.588 |
| CCOC(=O)[C@@](C)(N)Cc1ccc(O)c(O)c1 | 0.844 |
| CC(C)(C)c1ccc(S(=O)(=O)NCc2ccc(C(=O)Nc3cccnc3)cc2)cc1 | 0.751 |
| Cc1ccc(S(=O)(=O)c2c(C)cc(C)cc2C)cc1 | -1.07 |
| Cc1cc(NC(=O)C2=C(O)c3ccccc3S(=O)(=O)N2C)no1 | -0.0637 |
| COc1ccnc(C[S+]([O-])c2nc3cc(OC(F)F)ccc3[nH]2)c1OC (centres unmarked) | -0.425 |

Study 3
SMILES: CCCOc1ccc([C@H]2[C@H](C(=O)O)[C@@H](c3ccc4c(c3)OCO4)CN2CC(=O)Nc2c(CC)cccc2CC)cc1
Effect on: cell-free assay
Technique: competition with immobilised ligand
Concentration: 1 µM
| target | remaining binding [%] |
| --- | --- |
| PIK3CA (Homo sapiens, UniProt P42336, C420R) | 95 |
| FLT3 (Homo sapiens, UniProt P36888, F691L/ITD) | 13 |
| TNK1 (Homo sapiens, UniProt Q13470) | 100 |
| SRC (Homo sapiens, UniProt P12931) | 99 |
| MAPK9 (Homo sapiens, UniProt P45984) | 65 |
| EPHA2 (Homo sapiens, UniProt P29317) | 100 |
| LYN (Homo sapiens, UniProt P07948) | 90 |
| DYRK1A (Homo sapiens, UniProt Q13627) | 73 |
| Tyrosine-protein kinase ABL1, phosphorylated (ABL1, Homo sapiens, UniProt P00519) | 73 |
| NEK7 (Homo sapiens, UniProt Q8TDX7) | 96 |
| DCLK1 (Homo sapiens, UniProt O15075) | 75 |
| Cyclin-dependent kinase 4, with cyclin D1 (CDK4, Homo sapiens, UniProt P11802) | 100 |
| Ribosomal protein S6 kinase alpha-4, N-terminal kinase domain (RPS6KA4, Homo sapiens, UniProt O75676) | 84 |
| GAK (Homo sapiens, UniProt O14976) | 93 |
| Receptor-type tyrosine-protein kinase FLT3, autoinhibited (FLT3, Homo sapiens, UniProt P36888) | 80 |

Study 4
Host: human
Sample: microsomes or S9
Concentration: 2 µM
Time: 0.5 h
| Compound | remaining compound [%] |
| --- | --- |
| COc1ccc(/C=C/c2cc(OC(C)=O)cc(OC3OC(COC(C)=O)C(OC(C)=O)C(OC(C)=O)C3OC(C)=O)c2)cc1OC(C)=O (centres unmarked) | 0.749 |
| CC(=O)Nc1cccc(C(=O)Nc2ccccc2)c1 | 77.2 |
| CC(C)(C)OC(=O)N1CCO[C@H](Cn2nnc3ncc(Br)nc32)C1 | 54.2 |
| O=C(O)C(c1c[nH]c2ccccc12)N1CCN(CC(=O)N2CCCCCC2)CC1 (centres unmarked) | 93.9 |
| Cc1ccsc1CN(Cc1cn2ccccc2c1C#N)C(C)C | 46.8 |
| CCCN1CCc2[nH]cnc2C12CCN(C(=O)[C@@H]1C[C@@H](O)CN1)CC2 | 80.2 |
| O=C(CCCOc1ccc(Cl)cc1Cl)Nc1cccc(-c2nnc(-c3ccco3)o2)c1 | > 99.9 |
| Cn1cc(-c2cc3n(n2)CCC(=O)N3CCCC(=O)N2CCN(c3ccccn3)CC2)c2ccccc21 | 5.87 |
| CCC(CN1CCCC1)n1cncc1-c1cnc(N2CCC(C)CC2)nc1 (centres unmarked) | 74.4 |
| CCCC(=O)N(Cc1cc2ccc(C)cc2[nH]c1=O)C(C)(C)C | 49.2 |
| COc1ccc(N2C(=O)CCc3c(-c4ccccc4)cc(N(C)C)cc32)cc1 | 16.2 |
| O=C1NC(=O)c2c1cc1ccccc1c2-c1ccccc1 | 63.4 |
